Results of several laboratories.
A part holds a random share of what one study measured. Substitutions count along the parent as printed.

Block 1 — target: CCND1, cyclin fold, Cln2 fusion (human); technique: yeast growth competition, sequencing; matrix: yeast; setting: weak parent motif; reference: not given; reading: higher = stronger binding
Parent: DTL docking peptide (human); PSSMRKICTYFHR
| Substitution | normalised enrichment score |
| --- | --- |
| PSSARKICTYFHR [M4A] | 0.593 |
| PSSMRKACTYFHR [I7A] | 0.559 |
| PSSMRKICTYFAR [H12A] | 0.838 |
| PSSMRAICTYFHR [K6A] | 0.765 |
| PASMRKICTYFHR [S2A] | 0.516 |
| PSSMRKICAYFHR [T9A] | 0.516 |
| PSSMRKICTYFHA [R13A] | 0.644 |

Block 2 — target: UBE2U UBC core domain (UniProt Q5VVX9); technique: yeast two-hybrid; matrix: yeast; setting: mostly zero background; reference: not given; reading: higher = stronger interaction
UniProt Q5VVX9, sequence (whole entry, looked up): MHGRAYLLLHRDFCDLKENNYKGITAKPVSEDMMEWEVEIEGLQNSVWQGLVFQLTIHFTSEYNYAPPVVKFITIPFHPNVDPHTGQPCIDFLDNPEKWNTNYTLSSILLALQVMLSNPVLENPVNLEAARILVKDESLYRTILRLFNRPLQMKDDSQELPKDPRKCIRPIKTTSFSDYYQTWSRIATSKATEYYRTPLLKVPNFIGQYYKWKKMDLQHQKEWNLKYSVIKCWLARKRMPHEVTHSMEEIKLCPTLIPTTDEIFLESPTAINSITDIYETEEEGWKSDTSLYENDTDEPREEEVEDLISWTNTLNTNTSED
B1: PJA2 RING domain (UniProt O43164); chain DHTAIGQEQCCPICCSEYIKDDIATELPCHHFFHKPCVSIWLQKSGTCPVCRRHFPPAVIEA
B2: RFPL3 RING domain (UniProt O75679); chain MAALFQEASSCPVCSDYLEKPMSLECGCTVCLKCINSLQKEPHGEDLLCCCCSMVSQRNKIRP
B3: NHLRC1 RING domain (UniProt Q6VVB1); chain MREAEISLLECKVCFEKFGHRQQRRPRNLSCGHVVCLACVAALAHPRTLALECPFCRRACRGCDTSD
B4: RNF32 RING domain (UniProt Q9H0A6); chain VQALRRETHECSICLAPLSAAGGQRVGAGRRSREMALLSCSHVFHHACLLALEEFSVGDRPPFHACPLCRSCYQKKILEC
B5: RNF11 RING domain (UniProt Q9Y3C5); chain RDGSEKKIRECVICMMDFVYGDPIRFLPCMHIYHLDCIDDWLMRSFTCPSCMEPVDAALLSS
B6: RNF10 RING domain (UniProt Q8N5U6); chain VRICSHEVPSCPICLYPPTAAKITRCGHIFCWACILHYLSLSEKTWSKCPICYSSVHKKDLKS
B7: RNF7 RING domain (UniProt Q9UBF6); chain AICRVQVMDACLRCQAENKQEDCVVVWGECNHSFHNCCMSLWVKQNNRCPLCQQDWVVQRIGK
B8: RNF17 RING domain (UniProt Q9BXT8); chain SQPWGAAEIQCTRCGRRVSRSSGHHCELQCGHAFCELCLLMTEECTTIICPDCEVATAVNTRQR
B9: TRIM2 RING domain (UniProt Q9C040); chain VRQIDKQFLICSICLERYKNPKVLPCLHTFCERCLQNYIPAHSLTLSCPVCRQTSILPEKGV
B10: CBLL1 RING domain (UniProt Q75N03); chain GEKDDTPVHFCDKCGLPIKIYGRMIPCKHVFCYDCAILHEKKGDKMCPGCSDPVQRIEQCT
B11: TRIM68 RING domain (UniProt Q6AZZ1); chain LVEAIVEEVACPICMTFLREPMSIDCGHSFCHSCLSGLWEIPGESQNWGYTCPLCRAPVQPRNLRP
| Molecule | lacZ reporter activity |
| --- | --- |
| B1 (PJA2 RING domain) | 10700 |
| B2 (RFPL3 RING domain) | 0 |
| MEEMEEELKCPVCGSFYREPIILPCSHNLCQACARNILVQTPESESPQSHRAAGSGVSDY (TRIM9 RING domain (UniProt Q9C026)) | 8230 |
| B3 (NHLRC1 RING domain) | 4190 |
| B4 (RNF32 RING domain) | 7970 |
| B5 (RNF11 RING domain) | 11500 |
| B6 (RNF10 RING domain) | 0 |
| B7 (RNF7 RING domain) | 0 |
| EDVLSKDAGECAICLEELQQGDTIARLPCLCIYHKGCIDEWFEVNRSCPEHPSD (ZNRF2 RING domain (UniProt Q8NHG8)) | 8720 |
| GSEEEEIPFRCFICRQAFQNPVVTKCRHYFCESCALEHFRATPRCYICDQPTGGIFNPA (RNF113B RING domain (UniProt Q8IZP6)) | 8680 |
| EIKDYKARLTCPCCNMRKKDAVLTKCFHVFCFECVKTRYDTRQRKCPKCNAAFGANDFHR (RNF20 RING domain (UniProt Q5VTR2)) | 0 |
| FLSKVEETFQCICCQELVFRPITTVCQHNVCKDCLDRSFRAQVFSCPACRYDLGRSYAMQ (UHRF1 RING domain (UniProt Q96T88)) | 0 |
| B8 (RNF17 RING domain) | 15300 |
| B9 (TRIM2 RING domain) | 4780 |
| B10 (CBLL1 RING domain) | 0 |
| VPADASPDSKCPICLDRFDNVSYLDRCLHKFCFRCVQEWSKNKAECPLCKQPFDSIFHSV (TOPORS RING domain (UniProt Q9NS56)) | 16600 |
| B11 (TRIM68 RING domain) | 3500 |

Block 3 — technique: EMSA with sequencing; form: double-stranded DNA, one strand shown; matrix: in vitro; tested at: 10 and 20 nM; reference: negative control set to 0; reading: higher = stronger binding
Target: Hepatocyte nuclear factor 3-alpha (Foxa1, Mus musculus, UniProt P35582, residues 1-468, full length assumed)
UniProt P35582, sequence (whole entry, looked up): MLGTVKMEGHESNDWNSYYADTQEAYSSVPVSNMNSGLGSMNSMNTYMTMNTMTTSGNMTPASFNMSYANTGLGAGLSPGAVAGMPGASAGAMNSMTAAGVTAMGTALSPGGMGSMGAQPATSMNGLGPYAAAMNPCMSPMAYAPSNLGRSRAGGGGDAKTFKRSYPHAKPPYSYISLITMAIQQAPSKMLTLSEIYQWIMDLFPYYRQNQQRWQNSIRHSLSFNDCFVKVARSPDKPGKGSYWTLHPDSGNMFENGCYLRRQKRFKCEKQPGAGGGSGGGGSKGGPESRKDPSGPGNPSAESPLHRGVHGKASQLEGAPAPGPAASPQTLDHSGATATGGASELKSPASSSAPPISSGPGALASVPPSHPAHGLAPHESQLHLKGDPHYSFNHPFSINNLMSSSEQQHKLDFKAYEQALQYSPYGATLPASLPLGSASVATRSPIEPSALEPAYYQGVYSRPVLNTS
Setting: whole designed probe, mean of two concentrations, ends assumed
| Strand | normalised bound fraction [ratio] |
| --- | --- |
| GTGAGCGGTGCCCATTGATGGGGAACCACACTCACCAAGTGCTTTTTCATCATGGCATCAAGGATCATGGAAACGTTACACCAGCCACTCTTTTCTGGAGCAAAGATGACCCATGTCTGGGCAATTTAGAAAGGTTTCGTATGAGTATGTCTGTTCAAATAAATCCTAACTTTCTCACTGGGAAGGAATGACTAGTTCCCACGACTCACAGGACACCACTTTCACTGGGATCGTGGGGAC | 0.125 |
| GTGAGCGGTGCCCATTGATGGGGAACCTCATTCCTTGCTTCCGCCAATAATCTGACTAGTAAAGAAGTCACTGCATGCCACAAATTGTCAGTGCTGACTTCCTCGAGTGACTCAGTATTTATTTACTTATTTAATATATGAGTGTCACAGATGCAAATTCCATCTTGAGAATACCAACTCCTGATGCCAACTGATTGTCAGTCATGGCTACAACAGGAGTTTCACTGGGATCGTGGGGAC | 0.458 |
| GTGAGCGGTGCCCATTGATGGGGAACGTTTCGAGATATGGCATAAACTTTCAAGCTGAGTAAATGGTAGAAAGGTTAGCCAAGTCAACTTGGGGGTCGAATTTTAAGGAAATCTCAAAGTAATCTAGCTAATCTATAGGAAGTGAGAGATAATTTTAGTATTGCTGAACTTTCACATTCTTGTAAATTCCACTGGAGCGCATGGCTTTGCAGGAGCAGTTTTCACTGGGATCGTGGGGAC | -0.0888 |
| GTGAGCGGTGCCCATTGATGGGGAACATCTTCCCCCTCTTCCTTGCCCCACCAGCTCACCTTCCCGGGTTATTTGCAGATAGGAAAATAAATAAAGCCGGCATTCGTTAACCCTCTTCACGCGCATACTGCTGTTTGCTCTGGATCGATGAATCATGTTTGGCGACGCCAGGCTCCGGGAGAGCAAAGCACCGTGTCAGGGCCATGATCCGGGGTGGCCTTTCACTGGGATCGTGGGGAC | 0.382 |
| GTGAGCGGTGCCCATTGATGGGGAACACCAGTGCTATCTTCTGCCAACACCAGTAACAGCAGGCAGTAGGACTCCCTGAATAAACATTTTGAAGGCAAAGGTAAAGAAGGGTGGAATAAGCAATTTAGAAGTCACCATTCCTCCTGGAGTAAACCATTCCCTCCTCTGATTGCCTGAAGCTAACCATGAGACAGCAGGACTGGCTACATAATTTTCCAGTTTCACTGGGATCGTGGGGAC | 0.216 |
| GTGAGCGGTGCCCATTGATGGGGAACGTGTGTGCGCGCGCGTGTGTGTGTGTTTTCTTAAGCCGGGCTATTCAAACCCTGCTGCAATTCTCCCAATGATTCATGGTAAAGGGGCATAATGCAAATAAACGGATTGCAAACGGCGCGGTTCGCGCACTTTGCAGCCGGCCCGGTGGAGCAGCCAGTGCCGGATTTCTCCCTTTTTTTGCAGATCTGCAGATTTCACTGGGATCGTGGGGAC | 0.411 |
| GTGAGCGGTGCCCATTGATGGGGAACGCATGAGCCGCATTGCCCAGCAAAAGCCTCTAAGTGGTGATTTGCTGTTTGGCCTGAGAGTAATTTGGAGGCTGTGGCTGAGTCAGCTTCTCTTGTTGACTGAGCTGATGTCACTTTTGAGCATCATTGTTCCATAATTCCTTATGAAACTCTTCTGAAGCACTGAGAACCATCGACGGATCATATCAGCATGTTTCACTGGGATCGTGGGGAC | 0.016 |
| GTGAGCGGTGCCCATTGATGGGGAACGGAATACCCCTTTGATTTTACTGGTGACGTATACCCACTAGTGTACTGAGACGGAAAAAAAAGTCTTTAGAACTCAGATAAATATACAGTTCAAAATTACTATTTATGTATGTGTGATCTCATTATTAAATTACTCTATCATGTTTGTGGAATTAGCAGTTTCTCTTTGAATTTGGATGTTTCTAGTTATGTGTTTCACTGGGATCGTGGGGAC | 0.0217 |

Block 4 — technique: protein-binding microarray; form: hairpin DNA; matrix: in vitro; tested at: not given; reference: not given; reading: higher = stronger binding
Target: Runt-related transcription factor 1, full length (RUNX1, Homo sapiens, UniProt Q01196-8, residues 1-480)
Setting: whole hairpin DNA, median over replicate spots
| Strand | median fluorescence |
| --- | --- |
| GAGGCCCAACCGCACCAGCCTCCTGGCTGGTGCGGTTGGGCCTCACACTC | 3390 a.u. |
| CTCAGTTCCGTGGGCTGGACTCCTGTCCAGCCCACGGAACTGAGACACTC (5mC at 9) | 1980 a.u. |
| GAGGCCCAATCGCAACAGCCTCCTGGCTGTTGCGATTGGGCCTCACACTC | 1740 a.u. |
| CTCAGTTCCGTGGGCTGGACTCCTGTCCAGCCCACGGAACTGAGACACTC (5mC at 35) | 1830 a.u. |
| GAGGCCTGTTCCGGTTGGCCTCCTGGCCAACCGGAACAGGCCTCACACTC | 1630 a.u. |
| GAGGCCTGTCGCGCGTGGCCTCCTGGCCACGCGCGACAGGCCTCACACTC (5mC at 14 30) | 1990 a.u. |
| GAGGCCTGCTGTGGTTGGCCTCCTGGCCAACCACAGCAGGCCTCACACTC | 2550 a.u. |
| GAGGCCTGTTCGGGTTGGCCTCCTGGCCAACCCGAACAGGCCTCACACTC | 1760 a.u. |
| GAGGCCCAACCGCAACAGCCTCCTGGCTGTTGCGGTTGGGCCTCACACTC (5mC at 13) | 6660 a.u. |
| GAGGCCTGTCGCGGTTGGCCTCCTGGCCAACCGCGACAGGCCTCACACTC (5mC at 12) | 2130 a.u. |
| CTCAGTTCTGTGGGCTAGACTCCTGTCTAGCCCACAGAACTGAGACACTC | 1980 a.u. |
| CTCAGTTCTGTCGGCTGGACTCCTGTCCAGCCGACAGAACTGAGACACTC (5mC at 12 32) | 1700 a.u. |
| CTCAGTTCTGTGGGATGGACTCCTGTCCATCCCACAGAACTGAGACACTC | 1940 a.u. |
| GAGGCCCAACCGCAACAGCCTCCTGGCTGTTGCGGTTGGGCCTCACACTC (5mC at 11 33) | 1970 a.u. |
| GAGGCCCAACCGGAACAGCCTCCTGGCTGTTCCGGTTGGGCCTCACACTC | 1780 a.u. |
| GAGGCCTGTCGCGGCTGGCCTCCTGGCCAGCCGCGACAGGCCTCACACTC (5mC at 15) | 1870 a.u. |
| GAGGCCTGTTGAGGTTGGCCTCCTGGCCAACCTCAACAGGCCTCACACTC | 1950 a.u. |
| GAGGCCTGTTGCGCGTGGCCTCCTGGCCACGCGCAACAGGCCTCACACTC (5mC at 14) | 1830 a.u. |
| GAGGCCCGTTGCGGTTGGCCTCCTGGCCAACCGCAACGGGCCTCACACTC | 6320 a.u. |
| GAGGCCTGTTGTAGTTGGCCTCCTGGCCAACTACAACAGGCCTCACACTC | 1670 a.u. |
| GAGGCCTGTAGTGGTTGGCCTCCTGGCCAACCACTACAGGCCTCACACTC | 2020 a.u. |
| GAGGCCCACGCGCAACAGCCTCCTGGCTGTTGCGCGTGGGCCTCACACTC (5mC at 9 35) | 1800 a.u. |
| CTCAGTTCTCGGGGCTGGACTCCTGTCCAGCCCCGAGAACTGAGACACTC (5mC at 10 34) | 1650 a.u. |
| CTCAGTTCTGTGGCCTGGACTCCTGTCCAGGCCACAGAACTGAGACACTC (5mC at 14) | 1890 a.u. |

Some of these lines once more (block 4):
| Strand | median fluorescence |
| --- | --- |
| GAGGCCTGTCGCGCGTGGCCTCCTGGCCACGCGCGACAGGCCTCACACTC (5mC at 14 30) | 1990 a.u. |
| GAGGCCCAACCGCACCAGCCTCCTGGCTGGTGCGGTTGGGCCTCACACTC | 3390 a.u. |
| GAGGCCTGCTGTGGTTGGCCTCCTGGCCAACCACAGCAGGCCTCACACTC | 2550 a.u. |
| GAGGCCTGTTGCGCGTGGCCTCCTGGCCACGCGCAACAGGCCTCACACTC (5mC at 14) | 1830 a.u. |
